Results of several laboratories.
Target: Casein kinase I isoform gamma-1 (CSNK1G1, Homo sapiens, UniProt Q9HCP0)

With `Cc1ccc(-c2c(/C=C(\C#N)C(=O)NC(C)C)n(CCCO)c3ncnc(N)c23)cc1` the remaining binding was 100% (cell-free assay, competition with immobilised ligand; 1 µM).
`O=C(Cc1ccc(OCc2ccccc2)cc1)NC1(C(=O)O)CCN(C(=O)c2ccc(-c3cccc(Cl)c3)cc2)CC1` — result for “activity vs control”: 88% (enzyme activity, inhibitor; 10 µM).
For `COc1cc(Nc2nc(C)cc(-c3cnn4nc(OC)ccc34)n2)cc(C(F)(F)F)c1`, the remaining activity was 100% (inhibitor; 1 µM; relative to: control).
With `CNC(=O)C1CCN(c2cc(C)c(F)cc2NC(=O)c2ccc(-c3cc(O)ccc3C)c(C)c2)CC1` the remaining binding was 76% (binding, competition with immobilised ligand; 1 µM).
`NC(=O)C[C@H]1CCc2sc3ncnc(O[C@H]4CC[C@H](N5CCOCC5)CC4)c3c21` gave an inhibition of 5% (enzyme activity, inhibitor; 10 µM).
`O=C=[N][Ru-4]123([n]4c5ccc(O)cc5c5c6c(c7cc(F)c[n+]1c7c54)C(=O)NC6=O)[S+]1CC[S+]2CC[S+]3CC1` (stereo not drawn) has a remaining activity of 66% (enzyme activity; 100 nM, human enzyme, together with: 10 µM ATP; relative to: untreated).
`CCN1CCN(Cc2ccc(C(=O)Nc3ccc(C)c(NCc4cnc5[nH]ccc5c4OC)c3)cc2C(F)(F)F)CC1` gave a remaining binding of 89% (binding, competition with immobilised ligand; 1 µM).
`O=C(O)CCC(=O)c1cccc(NS(=O)(=O)c2c[nH]c3ncccc23)c1` gave a remaining activity of 104% (kinase activity, radiometric; 10 µM).
For `C=CC(=O)N1Cc2nc(-c3cc(-c4cc(Cl)cnc4Cl)c(F)cc3F)n(-c3ccncn3)c2C1`, the inhibition was 11% (cell-free assay, inhibitor; 1 µM).
With `COc1c(OCCCN2CCOCC2)ccc2c1N=C(NC(=O)c1cnc(N)nc1)N1CCN=C21` the remaining activity was 98% (kinase activity, inhibitor; 1 µM; relative to: untreated control).
`C=CC(=O)Nc1cccc(-c2cnc3[nH]cc(C(=O)NC(C)(C)C)c3n2)c1` has an inhibition of 7% (enzyme activity, inhibitor; 0.1 µM).
`CN1CCN(Cc2ccc(-c3ccc(CO[C@H]4CCC[C@@H]4NC(=O)c4cc(-c5cnn(C)c5)cnc4N)cc3)cc2)CC1` gave an inhibition of 11% (enzyme activity, inhibitor; 0.1 µM).
For `Cc1cccc(O[C@H]2CCC[C@@H](C(C)CNCc3ccncc3)C2)c1` (relative stereo), the inhibition was -8% (kinase activity, kinome panel screening; 10 µM).
`COc1c(Cl)cccc1Nc1c(-c2ccncc2C#C[C@@]2(C)CCCN2C(=O)/C=C/CN(C)C)[nH]c2c1C(=O)NCC2` has a remaining binding of 76% (cell-free assay, competition with immobilised ligand; 3 µM).
With `Cc1cnc2nc1Nc1cccc(c1)COC/C=C/COCc1cc(ccc1OCCN1CCOCC1)N2` the remaining signal was 86% (cell-free assay; 0.1 µM).

Repeated from above:
With `Cc1ccc(-c2c(/C=C(\C#N)C(=O)NC(C)C)n(CCCO)c3ncnc(N)c23)cc1` the remaining binding was 100% (cell-free assay, competition with immobilised ligand; 1 µM).
For `Cc1cccc(O[C@H]2CCC[C@@H](C(C)CNCc3ccncc3)C2)c1` (relative stereo), the inhibition was -8% (kinase activity, kinome panel screening; 10 µM).
